# Measurements from different studies.
# Each numbered part is a random draw from the data of one study; scales do not carry over between parts. Changes are numbered by the printed parent chain.

# Study 1 — method: RNA Bind-n-Seq; form: RNA; medium: in vitro; tested at: 1 µM; notes: whole 134-nt RNA, ends assumed; with: 150 mM KCl; reference: input library; reading: higher = stronger binding
# Target: Ras GTPase-activating protein-binding protein 1, RRM domain (G3BP1, Homo sapiens, UniProt Q13283)
# Sequence of UniProt Q13283 (whole entry, looked up): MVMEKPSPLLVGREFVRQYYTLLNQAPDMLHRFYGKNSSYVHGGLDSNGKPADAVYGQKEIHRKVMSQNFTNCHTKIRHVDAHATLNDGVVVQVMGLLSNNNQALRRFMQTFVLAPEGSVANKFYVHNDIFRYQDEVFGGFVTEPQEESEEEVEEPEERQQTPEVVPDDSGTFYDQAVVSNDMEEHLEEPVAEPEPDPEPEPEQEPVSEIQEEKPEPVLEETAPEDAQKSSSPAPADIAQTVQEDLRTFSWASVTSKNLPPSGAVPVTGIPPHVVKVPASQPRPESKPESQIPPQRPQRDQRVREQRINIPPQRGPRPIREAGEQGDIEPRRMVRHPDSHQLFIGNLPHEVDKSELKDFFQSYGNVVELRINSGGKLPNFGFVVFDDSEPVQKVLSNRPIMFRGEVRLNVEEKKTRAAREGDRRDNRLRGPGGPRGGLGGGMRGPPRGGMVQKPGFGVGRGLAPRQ
Sequence,log2 enrichment
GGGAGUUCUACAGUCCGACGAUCUGGGAGGUGGAUUUUGUUUAUUUUUUUAGCUCAUUUCCAGGGGUGGGAAUUUUUUAUUAAUAUGUGUCAUGAAUAAAGUUGUUUUUGAAAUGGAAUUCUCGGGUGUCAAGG,2.13
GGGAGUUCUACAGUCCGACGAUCUGUCCCUGACUCUCCAUUUCCCCAUCUGAGUGGAUUUGGACCUAAUAGGGCACUGGAGCUGGUUCGAAUCCUGACUGGACUACUUGGCAAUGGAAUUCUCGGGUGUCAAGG,0.291
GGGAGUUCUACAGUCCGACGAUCCUGUGCUACACAUCGUAUGUACCGAAUCGGAAAAAAAGGGGAAAAAAAGGGAAAAAAAGGGGAAAGUAUUAUGUUACGCCGUUCGGAUCUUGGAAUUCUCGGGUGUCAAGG,0.0525
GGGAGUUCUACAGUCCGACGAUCGUCCUGUGCUACACAUCGUAUGUACCGAAUCGGGGUUUUUGGGGUUUUUGGGGUGGGGAAAGUAUUAUGUUACGCCGUUCGGAUCUGCACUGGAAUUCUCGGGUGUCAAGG,0.698
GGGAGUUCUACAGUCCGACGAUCUGGGAGGUGGAUUUUGUUUAUUUUUUUAGCUCAUUUGCAGGGGUGGGAAUUUUUUUUUAAUAUGUGUCAUGAAUAAAGUUGUUUUUGAAAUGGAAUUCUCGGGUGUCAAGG,1.69
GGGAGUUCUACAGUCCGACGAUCGCAGGAAGUAAAAACAAAUGGGAAUGCUUCGGAUAGUGGCAGGGGUGGGGGUUGCUAAGGAAAGGGUGGGAUGGGAGUGGGUAAAGAGUUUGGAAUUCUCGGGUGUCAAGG,1.22
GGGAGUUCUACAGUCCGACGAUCGCAGGAAGUAAAAACAAAUGGAAAUGCUUCGGAUAGUGGCAGGGGUGGGGGUUGCUAAGGAAAGGGUCGGAUGGGAGUGGGUAAAGAGUUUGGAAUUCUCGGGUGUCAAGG,1.08
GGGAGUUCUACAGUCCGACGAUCUGCCUGCUCCGGGCCCCGUGCUGGCGCCUACGCACCUGCAGACAGAGCUGGUGCUGAGGUGCCAGAAGGAGACCGACUGUGACCUCUGUCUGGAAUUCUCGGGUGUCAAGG,-0.625
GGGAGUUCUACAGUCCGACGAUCACCAUGCAGAAAGGCAUCUUUGGGAAGUGGGGCAAGGGGGGGAUAGGGAGGGGGGUAACACUUUGGGAACAGGUGGUCCCAGGUCGUUUCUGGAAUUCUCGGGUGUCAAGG,-0.276
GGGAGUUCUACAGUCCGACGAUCUCAAGUCCUGUGCUACACAUCGUAUGUACCGAAUCGGGAAAGGGGAAAGGAAAGGAAAGUAUUAUGUUACGCCGUUCGGAUCUGCACUUCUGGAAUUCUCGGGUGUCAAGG,-0.276
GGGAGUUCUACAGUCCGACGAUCUGGGAGGUGGAUUUUGUUUCUUUUUUUAGCUCAUUUCCAGGGGUGGGAAUUUUUUUUUAAUAUGUGUCAUGAAUAAAGUUGUUUUUGAAAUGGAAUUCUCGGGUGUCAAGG,1.07
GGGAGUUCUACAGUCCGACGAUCCAAGUCCUGUGCUACACAUCGUAUGUACCGAAUCGGUUUUGGGUUUUGGUUUUGGGAAAGUAUUAUGUUACGCCGUUCGGAUCUGCACUUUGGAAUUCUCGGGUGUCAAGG,-0.232
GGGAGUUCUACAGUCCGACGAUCGCAGGAAGUAAAAACAAAUGGAAAUGCUUCGGAUAGUGGCAGGGAAAGGGGUUGCUAAGGAAAGGGUGGGAUGGGAGUGGGUAAAGAGUUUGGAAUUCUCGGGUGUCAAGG,1.32
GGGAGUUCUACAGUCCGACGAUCUCCUGUGCUACACAUCGUAUGUACCGAAUCGGGGUUUUUUUGGGGAAAGGGGUUUGGGGAAAGUAUUAUGUUACGCCGUUCGGAUCUGCAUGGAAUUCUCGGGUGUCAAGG,0.663

# Study 2 — target: CCNE2, cyclin fold, Cln2 fusion (human); method: yeast growth competition, sequencing; medium: yeast; notes: strong parent motif; reference: not given; reading: higher = stronger binding
# Starting sequence: RBL1 docking peptide (human); GSAKRRLFGEDPP; partner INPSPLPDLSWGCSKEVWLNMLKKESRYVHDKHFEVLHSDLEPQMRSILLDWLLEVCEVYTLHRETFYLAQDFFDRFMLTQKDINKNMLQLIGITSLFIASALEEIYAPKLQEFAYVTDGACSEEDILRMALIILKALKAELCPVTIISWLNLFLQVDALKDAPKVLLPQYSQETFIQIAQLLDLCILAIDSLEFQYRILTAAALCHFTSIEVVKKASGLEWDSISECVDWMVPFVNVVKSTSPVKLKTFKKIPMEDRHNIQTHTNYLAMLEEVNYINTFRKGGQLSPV
Change,normalised enrichment score
G1Y,4.97
D11A,4.26
R6M,1.25
P12R,4.03
G1T,4.91
P12T,4.66
R5V,0.0353
R6C,1.03
G9E,5.7
R6H,1.18
G1L,5.67
A3K,1.28
R5L,0.0402
S2H,4.64
P13W,4.57
S2V,3.01
P13C,4.11
L7A,0.0685
E10F,3.39
P13T,4.55
R5G,0.117
D11N,3.88
G9K,4.44
D11K,2.74
R6P,-0.231

# Study 3 — method: aptamer microarray, sandwich; form: DNA with 2'F-ANA; medium: in vitro; tested at: 200 nM; with: Cy3 exosite-II aptamer, 400 nM; reading: higher = stronger binding; sequence: GGTTGGTGTGGTTGG
# Target: Prothrombin, mature alpha-thrombin (F2, Homo sapiens, UniProt P00734)
# Notes: whole 15-mer aptamer, many near background
Modification,mean fluorescence intensity [a.u.]
2'F-ANA at 3 4 6 9 10 13,243
2'F-ANA at 2 4 7 9 10 11 14 15,64.1
2'F-ANA at 3 4 6 14 15,277
2'F-ANA at 6 8 9 12 13 14,202
2'F-ANA at 2 3 4 5 7 11 12 14 15,53.3
2'F-ANA at 2 3 5 7 9 10 13 15,54.3
2'F-ANA at 3 4 5 9 13 14 15,61
2'F-ANA at 1 2 3 4 5 6 11 12 13,67
2'F-ANA at 3 5 6 11 14 15,51.4
2'F-ANA at 3 4 6 8 9 11 13,441
2'F-ANA at 1 2 3 4 5 6 8 12 13 14,83.3
2'F-ANA at 4 6 7 8 10 11 12 14 15,57.1
2'F-ANA at 1 2 4 6 9 15,104
2'F-ANA at 1 3 7 8 9 10 11 12 14 15,62.8
2'F-ANA at 1 6 7 9 13 14,55.6
2'F-ANA at 1 2 4 8 9 11 12 13 15,150
2'F-ANA at 2 3 4 5 6 7 8 10 13 14,49.8
2'F-ANA at 7 11 12,791
2'F-ANA at 1 2 3 5 6 7 8 9 10 11 12 13 15,54.9
2'F-ANA at 1 5 8 9 10 11 13 14 15,47.9
2'F-ANA at 4 6 8 9 12 14 15,102
2'F-ANA at 1 2 3 4 8 9 10 13 15,50.8
2'F-ANA at 1 3 4 7 9 13,108

# Study 4 — method: DHFR PCA, deep sequencing; medium: yeast; with: (+)-ABA 0.39 µM; reference: wild-type fitted maximum; reading: higher = stronger binding
# Target: ABI1, truncated, D143A, DHFR fusion (Arabidopsis thaliana)
# Notes: methotrexate growth selection, single substitutions
# Starting sequence: PYL1, truncated, DHFR fusion (Arabidopsis thaliana); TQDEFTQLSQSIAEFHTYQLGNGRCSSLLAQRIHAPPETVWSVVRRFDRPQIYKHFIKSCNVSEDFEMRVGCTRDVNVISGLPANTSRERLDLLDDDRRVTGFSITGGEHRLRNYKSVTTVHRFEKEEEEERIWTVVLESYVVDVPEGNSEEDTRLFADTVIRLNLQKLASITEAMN
Change,relative binding score
D75P,-8.79%
F124S,11.6%
A175I,-3.03%
D48G,1.42%
A13P,0.795%
P50R,-9.06%
D65G,37.7%
L166Q,14.2%
N177G,62.8%
F157V,4.97%
T86A,16%
D48M,-11.4%
T173G,-3.44%
A30Y,30.2%
K58M,2.86%
A175R,44.2%
Y53M,-5.41%

# Study 5 — method: RNA Bind-n-Seq; form: RNA; medium: in vitro; tested at: 365 nM; reference: no-protein control; reading: higher = stronger binding
# Target: RNA binding protein fox-1 homolog 2, RRM domain, GST-SBP tag (RBFOX2, Homo sapiens, UniProt O43251-10, residues 100-194)
# Notes: natural RNA segment, single round, ends assumed
# Construct (chain): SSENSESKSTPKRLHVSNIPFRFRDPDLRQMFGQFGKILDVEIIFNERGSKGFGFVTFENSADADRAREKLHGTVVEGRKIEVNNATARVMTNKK
Sequence,RBNS enrichment (R)
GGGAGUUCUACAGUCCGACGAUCUUUUUAACUCCAGCUUCCUUUGCUUUUUACUUGACCAAAGCUAAGACAAUAGCCAGAUGGUUAGUGGGGCAGCCAGGCAGGGAGGACCCAGGGCUGGGAUUCUCCAACCUUGGAAUUCUCGGGUGCCAA,0.181
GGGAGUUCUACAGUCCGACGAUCAUUCCUGUUGUGUUAUUUUUCUUAACUGGAGUGUGUGCUGCCUUUCAGGUACAAUUUUUGUGUAAUAAAAGCCAGUGCAUUAAGUUUAUAUAGACUACUUUCUAUGCAAGUGGAAUUCUCGGGUGCCAA,0.307
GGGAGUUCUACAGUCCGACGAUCCACCUCAGAAACUUCCACCCUCAUGACUGGAAUGGAAGAGGGGACCGAGAGCCUCACAAUCUCGGAGAGGGAGGAGAAAUUCUUAAAAACAGCUGCUCUCCUGCGCCCAGUGGAAUUCUCGGGUGCCAA,0.397
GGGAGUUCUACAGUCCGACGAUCCUAAUUAGCUAUAUAGGCCCAGCGAUGCUUCUUAUUGAUCUUAAUAGUAUGCCCCUCCUUCCCCUGUCCUUUCAUUUCUCUAUCCAAGUAGCAGUCAGGUUCUUGGUGUGUGGAAUUCUCGGGUGCCAA,1.2
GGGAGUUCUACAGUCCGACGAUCACAUUAAUCAGGAAUACAGAAUGCAGGUCUUCACAUUUACAGGAAGAGCACCUUGUAUAGUAGGUCUGAGUCAAAUAGGACUGAAUUGGUGACAAAGUUUGCACUUACAAUGGAAUUCUCGGGUGCCAA,0.317
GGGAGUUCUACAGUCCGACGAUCGUAUCUUACUGUUUGGUUAAGGCACUAAUUUUACUUACCUAUUAGAUUUUGAAAGUAUCUGAGAUAUACAAAUCUCCCUGUAGGAAAUGUGAAAGAAAAGCACAACAAAAUGGAAUUCUCGGGUGCCAA,0.356
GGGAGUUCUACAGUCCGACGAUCUUUUGUGACUUUGUGUGGUUCGAAUUUCUCAGUAUUUUAACCAGUGUGUUGAUGUUAAAGUCAAAGGCUGCAGUAUGUCUAUAUUCUUGCUGUACUCAUUGGUAGUUUCAUGGAAUUCUCGGGUGCCAA,0.804
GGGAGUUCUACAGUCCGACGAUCAAAAGUUUUGGAUUUUGGAGCAUUUCGGAUUUUGGAUUUUUGGAUUAGGGUUGCUCAACCCAUAUUAUUGGCUGUACAUCCUGGUCACUUCUGACUUCUGUUUUUACUAAUGGAAUUCUCGGGUGCCAA,0.305
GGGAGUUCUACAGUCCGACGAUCCUCUUCCAUGGUGCCGGCCAGAUUUGGGGACGGAGCACCAUUGUCCCUGUGGGGCUCAAUGUGGUGUCGCCUCUCUGGGCUGAGUGACUUGAUUUGACCAGCAUGCACUCUGGAAUUCUCGGGUGCCAA,2.59
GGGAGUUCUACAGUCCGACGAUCGGGUCGCCUGCUACCCGACUGAUGUCCGUUGAGGGCUGCAGUCAGAGGCCCUGGACAGAAGCUCCAGAUAGGCCCCUAGAACAUGAAGCAGUUUGCUCUGUGCGUCCACGUGGAAUUCUCGGGUGCCAA,0.386
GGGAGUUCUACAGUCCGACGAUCGCCCCUCGGCUCUGCCGCGGUGGGCCGAGGCCGCUGUUGGGGGUUUCCCUGUGUGGACCAUGGGGAUCAGAGUCUGGCCUGCCAGGCUCCUCUCCCCGUUUUCUCUUUUGUGGAAUUCUCGGGUGCCAA,0.2
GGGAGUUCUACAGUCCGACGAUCUUGUGCACAUAUUUCUGCUACCACCAAGACUGUAUUAUACAGAUAAAUAAACAACUUGAAACCUGUUCUCAGACUGUUACCCUUCAUAUGUCAGUGCCCUGCUCUCUCCAUGGAAUUCUCGGGUGCCAA,0.653

# Some of these lines once more (study 4):
Change,relative binding score
A175I,-3.03%
D48G,1.42%
A13P,0.795%
P50R,-9.06%
D65G,37.7%
L166Q,14.2%
N177G,62.8%
F157V,4.97%
T86A,16%
D48M,-11.4%
T173G,-3.44%
